Published values gathered from unrelated publications.
Every numbered part comes from another study and shows a few of its results, in no order. Substitutions count along the parent as printed.

Study 1 — method: RNA Bind-n-Seq; molecule type: RNA; matrix: in vitro; tested at: 365 nM; relative to: no-protein control; direction: higher = stronger binding
Target: RNA binding protein fox-1 homolog 2, RRM domain, GST-SBP tag (RBFOX2, Homo sapiens, UniProt O43251-10, residues 100-194)
Notes: natural RNA segment, single round, ends assumed
Target sequence (chain): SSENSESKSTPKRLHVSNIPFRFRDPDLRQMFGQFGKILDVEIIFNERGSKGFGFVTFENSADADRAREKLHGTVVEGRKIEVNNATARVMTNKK
| Oligonucleotide | RBNS enrichment (R) |
| --- | --- |
| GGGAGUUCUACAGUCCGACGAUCUUUCCUCAUGCUUUUUUGCUUAGAUUACUCUUUGACUGUACCUUCUGUUCAAAUUUGCUUCCUUCAUGUCUUUUGAGACAGCAUCUCCUGAUUGAGUUCGCCUCACACCAUGGAAUUCUCGGGUGCCAA | 0.493 |
| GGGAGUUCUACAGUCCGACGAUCCUAUUAUGUCUUGUAAAUUUCUUUUGUUGGUGUAAAUAUGGAAAUGCCACAUUGGUUAAGUGCCAUCAUUUGUAAUGCAAUGUGUCACUUGAAAAGAGAUUUGAAGAAACUGGAAUUCUCGGGUGCCAA | 0.715 |
| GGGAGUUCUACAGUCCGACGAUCUCCAAAGCCACAUCACAGUCGGUGGUGAUGCAUCUGGGGGCUUACUCUGAGGAAACCUAGGAAAUCUCGGUGUACUAGGAAGUGAAUCCUGCAGGACAGCUGCACUCAGGUGGAAUUCUCGGGUGCCAA | 0.357 |
| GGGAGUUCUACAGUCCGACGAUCUUUCUGGCUUUAGCUGCUAGUUUUCCCAAAUCUCAGUGCUUUCCCUUUUUGAACUUCCCUUCUAUUAAACUUAAAACAGAUGUCUUAAUUAAUCAGGCUGUCUUGGAAGGUGGAAUUCUCGGGUGCCAA | 0.452 |
| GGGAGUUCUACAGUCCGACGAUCUUUGAGGACUCAUUAGUUGGCAGGUCACAGUUGUUUGAAGUCACUAUGGGUCAUAGUGACUCUGGAGAGGUCCUGGCAGCCCUGAGGAUGUGGAAACCACUAGGGGGCUCUGGAAUUCUCGGGUGCCAA | 0.438 |
| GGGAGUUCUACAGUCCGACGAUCGAGAUCUGCCUGCCUCUGCUUCCCAAGUGCUGGGAUUAAAGGCAUGCGCCACCUUCACCUGGGUUUUCUUUCUUAAAGGAACAGGUUAGAGCAAGUGACCGUUGAGGACAUGGAAUUCUCGGGUGCCAA | 0.352 |
| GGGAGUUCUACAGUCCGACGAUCAGAUCCAUCCCACACCCAGACAGAACCUUUCCCUUGGGAGCAGCACAGGGGUCCCACAUUCUUGUGUAGUUUGCACAGGUACAUGUGCAGUUUCCUGAAGGAUGGAGGGAUGGAAUUCUCGGGUGCCAA | 0.375 |
| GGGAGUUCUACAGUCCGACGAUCAGUGAGUGAAGUUGAAAUAAAAUCUUUAAAAUUUACUAUAUUGCCAGUGGUUUCACAACAGUUCUCUUGUAUUUAUUUAUCAAUUAAAUCAAAUAAAAAUGAUUAUGUCAUGGAAUUCUCGGGUGCCAA | 0.841 |
| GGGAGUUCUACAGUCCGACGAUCAUGGUCAAGUCCUUUUGUUGCUCUCAUCCCCUCCCCCUGCCCCACCAUGUGCCCCUGGCUGCCCUUAUCCGCCCAAACCAAAGGCUGAGAGGGGGAGGCCUGUGUCCUUCUGGAAUUCUCGGGUGCCAA | 0.525 |
| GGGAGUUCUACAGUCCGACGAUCGCUGGCCCUGCAGCUUGCUUCCCUGCGGAUUAGGCCUUUGCUCAUGCUAUAGCCUUCAUGUGGGUGCUACCUAGAGCAGGCGUGAACUGCUGGGUGGUGAUUGUGAGUUCUGGAAUUCUCGGGUGCCAA | 0.471 |
| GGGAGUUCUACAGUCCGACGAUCCCUGGGAUGCAGAGGAGGGGGAUCACUGCAAGACCACCCUGGUUGCUCUCCAUAUGAGCUCCAGGCCAGCUUGGGUUACAUAAGGAAACCCUGUCUUGAGAAAAACCAAUUGGAAUUCUCGGGUGCCAA | 0.901 |
| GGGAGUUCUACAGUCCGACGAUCUCCCUGCCUUGUGGCAAAGGGGCCCCAAAAGAAAAGCUGCCCUUCCCCAAAUGUAAGGACCCAGGUACACUUUCACCCGUGGAAAGCAGUGUCUGUCGAGAGUCUGUUUCUGGAAUUCUCGGGUGCCAA | 0.299 |

Study 2 — method: universal PBM; molecule type: double-stranded DNA, one strand shown; matrix: in vitro; tested at: 600 nM; direction: higher = stronger binding
Target: Sal-like protein 4, full length isoform A (SALL4, Homo sapiens, UniProt Q9UJQ4, residues 1-1053)
UniProt Q9UJQ4, sequence (whole entry, looked up): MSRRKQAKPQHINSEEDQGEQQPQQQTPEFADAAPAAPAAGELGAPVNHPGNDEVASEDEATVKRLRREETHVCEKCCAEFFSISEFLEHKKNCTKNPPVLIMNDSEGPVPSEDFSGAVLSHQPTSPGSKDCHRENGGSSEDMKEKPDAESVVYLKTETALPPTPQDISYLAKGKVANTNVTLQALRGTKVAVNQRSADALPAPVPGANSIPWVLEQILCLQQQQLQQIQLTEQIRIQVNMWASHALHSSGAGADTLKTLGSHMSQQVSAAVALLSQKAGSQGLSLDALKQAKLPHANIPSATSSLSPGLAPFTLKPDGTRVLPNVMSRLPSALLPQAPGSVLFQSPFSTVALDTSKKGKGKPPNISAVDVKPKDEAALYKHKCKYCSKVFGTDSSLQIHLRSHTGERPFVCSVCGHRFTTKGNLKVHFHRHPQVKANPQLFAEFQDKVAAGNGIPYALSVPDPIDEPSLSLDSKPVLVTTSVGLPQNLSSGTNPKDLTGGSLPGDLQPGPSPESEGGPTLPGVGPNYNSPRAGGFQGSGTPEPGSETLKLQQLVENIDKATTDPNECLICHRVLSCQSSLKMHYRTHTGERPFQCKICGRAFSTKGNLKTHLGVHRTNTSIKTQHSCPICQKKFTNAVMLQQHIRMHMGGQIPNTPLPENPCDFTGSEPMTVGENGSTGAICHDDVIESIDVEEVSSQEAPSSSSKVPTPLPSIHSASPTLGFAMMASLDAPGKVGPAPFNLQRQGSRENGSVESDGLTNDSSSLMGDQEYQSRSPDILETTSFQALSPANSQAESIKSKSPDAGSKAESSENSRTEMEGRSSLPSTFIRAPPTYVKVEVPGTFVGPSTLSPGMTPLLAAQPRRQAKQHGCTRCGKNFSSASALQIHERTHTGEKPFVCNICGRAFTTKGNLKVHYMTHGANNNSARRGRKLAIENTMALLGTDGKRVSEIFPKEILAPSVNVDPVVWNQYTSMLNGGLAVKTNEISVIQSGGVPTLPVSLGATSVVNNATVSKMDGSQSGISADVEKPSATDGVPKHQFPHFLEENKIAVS
Notes: 8-mer, flanks averaged, mean of replicates
| Oligonucleotide | E-score |
| --- | --- |
| CGAGATCA | -0.115 |
| GAGGTACA | 0.025 |
| AATTGACG | 0.0989 |
| ATCGTCGA | -0.111 |
| AACGGCAC | -0.202 |
| CAAAGGAG | 0.127 |
| GAGTCCGA | -0.00413 |
| GCCGGAAA | -0.061 |
| AGACGCAT | 0.0163 |
| AGACCAAC | -0.0402 |
| CCGCGCCG | -0.359 |
| CTCTGCGA | -0.116 |
| AGGGAGAT | -0.169 |
| AAGTTTCC | 0.0941 |
| AGTGGATA | 0.0405 |
| AAGAGCTG | -0.173 |
| CTTCTCGC | -0.0387 |
| AGGTCCAT | 0.0946 |
| ACCATTTA | 0.231 |
| GACTTGGA | -0.146 |
| CATTGCAA | 0.126 |
| AGGCTTGC | -0.183 |
| CTACCTAC | 0.0187 |
| ATTGCGGA | 0.0827 |
| ACTTAACT | 0.122 |

Study 3 — method: RNA Bind-n-Seq; molecule type: RNA; matrix: in vitro; tested at: not given; relative to: input RNA pool; direction: higher = stronger binding
Target: RING finger protein unkempt homolog, zinc fingers 1-6, GST-SBP tag (UNK, Homo sapiens, UniProt Q9C0B0, residues 30-357)
UniProt Q9C0B0, sequence (30-357, looked up): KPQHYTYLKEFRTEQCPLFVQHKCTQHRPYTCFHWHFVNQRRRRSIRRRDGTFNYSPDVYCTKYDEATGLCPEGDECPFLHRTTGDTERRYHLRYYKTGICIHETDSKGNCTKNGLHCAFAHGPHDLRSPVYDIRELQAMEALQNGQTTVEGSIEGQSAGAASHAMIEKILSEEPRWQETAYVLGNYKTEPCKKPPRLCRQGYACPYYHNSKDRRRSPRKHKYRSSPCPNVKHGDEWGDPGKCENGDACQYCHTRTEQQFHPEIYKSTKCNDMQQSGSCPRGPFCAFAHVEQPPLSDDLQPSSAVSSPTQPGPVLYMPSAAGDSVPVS
Notes: RNA with constant flanks, human-mouse chimeric sites, ends assumed
| Oligonucleotide | bound/input enrichment |
| --- | --- |
| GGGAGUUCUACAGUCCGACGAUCGCACUUCUCAAAUACUGGCCAAAGACUCACAGUCCAAAAGAAGUAAUGUUCUUAAACGAAUUAGAAGAAAUUUUAGAUGUCAUUGAACCAUCAGAGUUUGUGAAGAUCAUGGAGCCUCUUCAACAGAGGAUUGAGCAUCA | 0.684 ratio |
| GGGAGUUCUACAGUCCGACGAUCUUCAAAGAAAAGGGCAGCUGUGUCAUUACUUGGGAGACUCUGGGGGAGGGAAAUUCUGUUCUUUUGUUUAAUUUUCCCCCAAAUGAAGCCAAAGUGUGUGUUGAAGAACUGAGAAAAAAUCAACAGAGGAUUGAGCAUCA | 0.28 ratio |
| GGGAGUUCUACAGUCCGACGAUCUAAAUUAGGGCUGCCGUUUUCUGUUUCUCCCUGGGCUGCGGAAAGCCAGAAGAUUUUAUCUAGUUUGUACAAGGCUGCUGGAGCUUGCUCUUUUUUUCCACGAGGGUGUUUUUGGCUGCACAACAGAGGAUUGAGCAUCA | 0.854 ratio |
| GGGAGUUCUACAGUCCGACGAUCCUCGGCACCGGCACGCUUUACAUCGCGGAGAGCCGCCUGUCCUGGUUAGAUGGCUCUGGAUUAGGAUUCUCACUGGAAUACCCCACCAUUAGUUUACAUGCGGUGUCCAGGGACCGAAACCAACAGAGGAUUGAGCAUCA | 0.755 ratio |
| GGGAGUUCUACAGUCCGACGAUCUCUUAACUUAUUCAUUUAACUUAUUUUUAUAGCUAGAUAAAUAUUGUUAGUCUUAGACAAUAGCUCACAUUUUUUGAGAAGCAUGCCCUCCCUGUCCAUUGGGCCCACAAUAACACUCAGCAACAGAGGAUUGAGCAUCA | 16.5 ratio |
| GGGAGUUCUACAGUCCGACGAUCCUGUGACCACAAGAUCCUGAAGUUUGAGCAGCUGAAGUUGACUCCCUCUCCUUGCCUGAACCCCCCCCCACUGCCCCUUGAGUCCACAGUGUCGGCUGAGAUGUUGCCUCUGCACGGUUCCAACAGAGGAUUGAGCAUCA | 0.896 ratio |
| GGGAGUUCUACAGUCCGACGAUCUCUGGUCACACUCGUGUGUAUGGUGUUUGCUUUGUGGACACUUCACUGGGCAAGUUUUUCAUAGGUCAGUUUUCGGAUGACCGCCACUGUUCCAGAUUUAGGACGCUAGUGGCACACUAUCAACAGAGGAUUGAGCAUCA | 0.244 ratio |
| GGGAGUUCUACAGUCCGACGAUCCUGGCACUCUAUCAGAUAUAUUAAUUUUUUAAUGUAGAUGUAAUUUUAAAAAUGAAUGGCUACUUUACACGUUUAACUAGGGUUUUACUACAUAUGUGUGUGUAUAUAUAUAUAUAUAUACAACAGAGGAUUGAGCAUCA | 9.98 ratio |
| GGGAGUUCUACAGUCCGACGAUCCUGUGACCACAAGAUCCUACCUGAGUGGCAGCUGAAGCACUUUUCUUCUCCUUGCCUGAACCCCCCCCCACUGCCCCCCCAUCCCCCAGUGUCGGCUGAGAUGUUGCCUCUGCACGGUUCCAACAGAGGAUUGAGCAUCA | 1.32 ratio |
| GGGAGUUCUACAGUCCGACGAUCCUGUGUGUGCUGAAUAAAUGGCUUGUAAGAACUGUCCUCCAAGCUGUAACCCAUGCUGUUAUUAUAGUUGCUGCAAAAUGUCUCUUAUGAUAUUGAUUUUAUUUGUUAACUGAAGGUCUCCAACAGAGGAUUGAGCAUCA | 0.411 ratio |
| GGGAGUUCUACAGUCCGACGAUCAUAAAGGCUAUGUUGAGUGGUCCAGGUCAGUUUGCUGAGAACGAAACCAACGAGGUCAAUUUUAGAGAGAUCCCCUCACAUGUGCUAUCAAAAGUGUGCAUGUAUUUUACGUACAAGGUCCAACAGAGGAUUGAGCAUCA | 0.191 ratio |

Study 4 — target: CRIPT, C-terminal peptide; method: DHFR complementation, deep sequencing; matrix: yeast; relative to: wild type; direction: higher = weaker binding
Notes: single substitutions, model-inferred values
Starting sequence: ERBIN, PDZ domain 1 (human); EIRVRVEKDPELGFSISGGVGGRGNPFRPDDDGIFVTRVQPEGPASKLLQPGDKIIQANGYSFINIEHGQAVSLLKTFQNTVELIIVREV; partner TKNYKQTSV
| Change | binding free energy change [kcal/mol] |
| --- | --- |
| I34C | 0.789 |
| P10K | -0.735 |
| L12E | 1.47 |
| S62H | 0.0598 |
| E83T | -0.0331 |
| I2Q | 0.19 |
| E7N | 0.0671 |
| I34N | 0.192 |
| F35Q | 0.942 |
| V6K | 0.918 |
| G43R | 0.225 |
| F27A | 1.08 |
| D30S | 0.175 |

Study 5 — method: protein binding microarray; molecule type: double-stranded DNA, one strand shown; matrix: in vitro; tested at: not given; relative to: not given; direction: higher = stronger binding
Target: Histone acetyltransferase KAT6A, winged helix 1, GST fusion (KAT6A, Homo sapiens, UniProt Q92794, residues 1-85)
Notes: 8-mer, flanks averaged, mean of 2 arrays, mostly near background
Construct (chain): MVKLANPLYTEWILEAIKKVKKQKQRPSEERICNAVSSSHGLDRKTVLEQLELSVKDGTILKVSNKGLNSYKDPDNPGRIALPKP
| Oligonucleotide | E-score |
| --- | --- |
| AGGTTGCG | -0.0475 |
| CATGCCTC | 0.165 |
| CCAAGCAC | -0.178 |
| AAGTTCGC | -0.0564 |
| GACACAAC | -0.0642 |
| AAAGTCCC | -0.0668 |
| CCTGCTCG | -0.045 |
| CGTTTATA | 0.0747 |
| ATAAGAAG | -0.204 |
| AAGGGATC | -0.0174 |
| GAATTAGC | -0.116 |
| CGTAACGC | 0.349 |
| AAGGGACA | 0.00942 |
| ACTCTGGC | -0.115 |
| CATAGGCG | 0.2 |
| GCAAGTCA | -0.034 |
| ACGTTGTA | -0.187 |
| CAGTGGTA | -0.16 |
| CTACATGA | -0.163 |
| ATCTTCCG | 0.113 |
| AAAACAAA | -0.115 |
| AGTATAAT | -0.0711 |

Excerpt of the above (study 2):
| Oligonucleotide | E-score |
| --- | --- |
| GACTTGGA | -0.146 |
| CATTGCAA | 0.126 |
| AGGCTTGC | -0.183 |
| CTACCTAC | 0.0187 |
